Published values collected from several papers.
Lines come from different studies, so protocols differ.
Target: Mitogen-activated protein kinase 13 (MAPK13, Homo sapiens, UniProt O15264)
Residues used in one study (O15264 1-365): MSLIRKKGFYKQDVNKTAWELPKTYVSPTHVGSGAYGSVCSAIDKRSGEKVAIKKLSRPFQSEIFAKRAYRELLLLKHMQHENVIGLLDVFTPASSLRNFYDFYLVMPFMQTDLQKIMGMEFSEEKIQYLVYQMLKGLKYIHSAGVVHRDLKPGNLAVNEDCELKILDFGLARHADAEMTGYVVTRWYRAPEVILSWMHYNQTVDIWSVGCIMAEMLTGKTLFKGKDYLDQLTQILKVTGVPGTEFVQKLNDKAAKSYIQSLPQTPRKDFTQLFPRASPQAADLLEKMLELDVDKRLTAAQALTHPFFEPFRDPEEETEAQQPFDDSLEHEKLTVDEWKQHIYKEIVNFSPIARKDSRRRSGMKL

`COc1cc(-c2cncc3c2CN(C)Cc2cc(N4CCNCC4)ccc2-3)cc(OC)c1OC` gave a remaining activity of 109% (kinase activity; 1 µM, human enzyme, together with: ATP 10 µM; reference: DMSO control).
For `CC(C)(C)Cn1c(N)nc2ccc(-c3[nH]c(C(C)(C)C)nc3-c3ccc(F)cc3)nc21`, kinase activity read “inactive” (inhibitor; up to 10 µM).
The remaining binding of `C=CC(=O)N1CCC(COCC(=O)N2CCN(c3nc(-c4cnc(N)nc4C(F)F)nc(N4CCOC[C@@H]4C)n3)CC2)CC1` is reported as 100% (KINOMEscan; 1 µM).
`O=C1NC(=O)/C(=C/c2ccc(-c3ccc(F)cc3O)o2)S1` gave a remaining activity of 38% (enzyme activity; 10 µM).
The remaining activity of `Cc1cc(Nc2cc(N3CCN(C)CC3)nc(Sc3ccc(NC(=O)C4CC4)cc3)n2)[nH]n1` is reported as 92% (kinase activity, KinaseProfiler; 0.03 µM, species human; reference: control).
`CNc1ncc2c(/C=C/C(=O)N3CCC(OC)CC3)nn(Cc3cccc(C(F)(F)F)c3)c2n1` has a remaining activity of 102% (kinase activity, inhibitor; 1 µM; reference: untreated control).
`COc1cc(F)ccc1-c1ncnc(Nc2cccc(C[S@](C)(=N)=O)c2)n1` gave a remaining activity of 102% (kinase activity; 10 µM, together with: 10 µM ATP).
`Cc1cc(C)nc(NC(=S)N2CCN(Cc3ccc(C(F)(F)F)cc3)CC2)c1`: kinase activity “no effect” (inhibitor, ADP-Glo; concentration not given).

Some of these lines once more:
The remaining binding of `C=CC(=O)N1CCC(COCC(=O)N2CCN(c3nc(-c4cnc(N)nc4C(F)F)nc(N4CCOC[C@@H]4C)n3)CC2)CC1` is reported as 100% (KINOMEscan; 1 µM).
